Published values collected from several papers.
Lines come from different studies, so protocols differ. Values joined by “and” are separate records of one study, mostly repeats; a detail may differ. ± gives the spread as reported.
PRKCD: Protein kinase C delta type (PRKCD, Homo sapiens, UniProt Q05655)
Pick1 PDZ domain: PRKCA-binding protein, PDZ domain (Pick1, Rattus norvegicus, UniProt Q9EP80)
PRKCA: Protein kinase C alpha type (PRKCA, Homo sapiens, UniProt P17252)
MAPK8: Mitogen-activated protein kinase 8 (MAPK8, Homo sapiens, UniProt P45983)
VHL with elongin B, C: von Hippel-Lindau disease tumor suppressor, with elongin B, C (VHL, Homo sapiens, UniProt P40337)
MAPK14: Mitogen-activated protein kinase 14 (MAPK14, Homo sapiens, UniProt Q16539)
Sigmar1: Sigma non-opioid intracellular receptor 1 (Sigmar1, Rattus norvegicus, UniProt Q9R0C9)
FOLH1: Glutamate carboxypeptidase 2 (FOLH1, Homo sapiens, UniProt Q04609)

The chains behind the UniProt entries cited, without tags or fusion partners. Where a name states a change or a piece, a line headed by the entry shows the natural chain unless it says otherwise. Residues count along the entry.
UniProt Q9EP80, whole entry: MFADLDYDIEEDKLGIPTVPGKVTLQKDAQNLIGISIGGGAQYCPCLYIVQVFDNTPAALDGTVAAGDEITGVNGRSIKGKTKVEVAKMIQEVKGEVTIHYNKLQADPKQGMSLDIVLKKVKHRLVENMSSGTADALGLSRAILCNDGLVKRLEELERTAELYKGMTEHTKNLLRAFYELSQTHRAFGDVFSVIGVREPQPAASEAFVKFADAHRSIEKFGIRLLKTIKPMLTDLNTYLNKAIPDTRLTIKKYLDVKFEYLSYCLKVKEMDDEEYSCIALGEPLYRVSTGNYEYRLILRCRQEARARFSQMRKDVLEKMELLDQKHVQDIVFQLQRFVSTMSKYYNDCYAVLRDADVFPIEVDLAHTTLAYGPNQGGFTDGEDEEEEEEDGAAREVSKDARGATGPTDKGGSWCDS
UniProt P45983, whole entry: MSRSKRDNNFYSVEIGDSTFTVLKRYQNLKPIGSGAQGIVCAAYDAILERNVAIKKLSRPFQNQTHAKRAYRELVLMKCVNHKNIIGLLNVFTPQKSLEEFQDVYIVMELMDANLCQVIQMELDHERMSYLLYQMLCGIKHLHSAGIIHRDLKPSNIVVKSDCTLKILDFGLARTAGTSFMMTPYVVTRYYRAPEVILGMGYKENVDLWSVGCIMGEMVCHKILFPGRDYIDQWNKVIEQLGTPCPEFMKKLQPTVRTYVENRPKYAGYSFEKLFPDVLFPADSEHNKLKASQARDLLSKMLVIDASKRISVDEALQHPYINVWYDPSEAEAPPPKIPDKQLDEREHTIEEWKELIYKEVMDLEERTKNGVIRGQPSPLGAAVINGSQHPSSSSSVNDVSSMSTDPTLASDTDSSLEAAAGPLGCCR
UniProt P45983, 1-384 isoform 3: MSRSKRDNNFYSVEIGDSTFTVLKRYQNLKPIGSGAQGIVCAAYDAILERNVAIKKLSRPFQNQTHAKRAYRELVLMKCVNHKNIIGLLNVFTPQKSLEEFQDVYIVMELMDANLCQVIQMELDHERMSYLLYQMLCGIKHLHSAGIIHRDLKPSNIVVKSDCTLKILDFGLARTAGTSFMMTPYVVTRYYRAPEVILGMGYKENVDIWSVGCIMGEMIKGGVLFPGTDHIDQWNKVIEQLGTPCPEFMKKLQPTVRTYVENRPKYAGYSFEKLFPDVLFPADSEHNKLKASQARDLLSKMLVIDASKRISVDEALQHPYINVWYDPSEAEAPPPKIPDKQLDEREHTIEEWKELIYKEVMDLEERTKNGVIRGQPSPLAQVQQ
UniProt Q16539, whole entry: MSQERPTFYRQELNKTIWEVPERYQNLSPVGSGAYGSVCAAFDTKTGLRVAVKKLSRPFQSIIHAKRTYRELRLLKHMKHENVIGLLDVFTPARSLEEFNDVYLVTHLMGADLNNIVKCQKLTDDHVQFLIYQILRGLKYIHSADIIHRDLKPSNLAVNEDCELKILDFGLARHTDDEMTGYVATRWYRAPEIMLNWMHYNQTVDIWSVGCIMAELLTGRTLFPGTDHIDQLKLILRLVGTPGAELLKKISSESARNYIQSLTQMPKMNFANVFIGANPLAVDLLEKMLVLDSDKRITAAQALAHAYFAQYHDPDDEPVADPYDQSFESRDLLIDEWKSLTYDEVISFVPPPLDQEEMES
UniProt Q9R0C9, whole entry: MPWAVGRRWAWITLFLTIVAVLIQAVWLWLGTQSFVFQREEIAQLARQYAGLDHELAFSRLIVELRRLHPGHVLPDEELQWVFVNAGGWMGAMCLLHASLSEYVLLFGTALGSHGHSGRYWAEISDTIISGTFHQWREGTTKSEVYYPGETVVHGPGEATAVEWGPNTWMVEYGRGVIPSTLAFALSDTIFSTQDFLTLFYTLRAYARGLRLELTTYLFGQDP
UniProt Q04609, whole entry: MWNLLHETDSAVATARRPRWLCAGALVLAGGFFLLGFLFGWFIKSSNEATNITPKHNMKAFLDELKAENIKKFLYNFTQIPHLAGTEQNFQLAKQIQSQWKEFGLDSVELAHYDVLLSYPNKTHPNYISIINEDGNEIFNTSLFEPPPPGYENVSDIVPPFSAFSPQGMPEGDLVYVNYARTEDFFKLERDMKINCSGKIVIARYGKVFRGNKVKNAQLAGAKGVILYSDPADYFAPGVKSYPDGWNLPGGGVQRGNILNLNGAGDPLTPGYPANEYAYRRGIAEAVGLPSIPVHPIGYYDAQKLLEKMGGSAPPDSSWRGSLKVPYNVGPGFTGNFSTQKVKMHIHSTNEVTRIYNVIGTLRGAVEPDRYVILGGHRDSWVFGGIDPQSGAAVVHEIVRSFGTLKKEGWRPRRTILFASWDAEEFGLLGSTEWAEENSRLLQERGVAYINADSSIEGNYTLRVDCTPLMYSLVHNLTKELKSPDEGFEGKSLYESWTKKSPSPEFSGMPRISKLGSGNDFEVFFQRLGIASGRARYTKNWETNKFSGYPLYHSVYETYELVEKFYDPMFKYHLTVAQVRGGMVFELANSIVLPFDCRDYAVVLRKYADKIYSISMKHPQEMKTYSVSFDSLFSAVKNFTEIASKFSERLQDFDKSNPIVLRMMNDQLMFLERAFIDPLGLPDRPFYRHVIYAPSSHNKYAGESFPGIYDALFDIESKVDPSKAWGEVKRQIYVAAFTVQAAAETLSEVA
UniProt P14174, 2-115 limits assumed: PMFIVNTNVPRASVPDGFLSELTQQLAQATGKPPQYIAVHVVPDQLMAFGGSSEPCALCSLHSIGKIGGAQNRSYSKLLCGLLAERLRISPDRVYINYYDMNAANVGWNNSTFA
UniProt Q2M2I8, 31-396 limits assumed: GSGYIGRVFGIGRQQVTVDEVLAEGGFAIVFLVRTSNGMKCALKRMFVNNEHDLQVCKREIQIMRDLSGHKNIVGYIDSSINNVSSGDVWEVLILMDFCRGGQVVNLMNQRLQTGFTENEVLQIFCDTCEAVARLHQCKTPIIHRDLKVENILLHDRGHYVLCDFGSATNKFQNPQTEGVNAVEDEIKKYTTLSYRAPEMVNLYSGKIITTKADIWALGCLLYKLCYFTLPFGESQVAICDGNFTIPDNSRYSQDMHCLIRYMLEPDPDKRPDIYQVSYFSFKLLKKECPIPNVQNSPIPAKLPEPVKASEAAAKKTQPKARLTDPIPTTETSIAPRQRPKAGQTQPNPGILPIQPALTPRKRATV
UniProt Q60492, whole entry: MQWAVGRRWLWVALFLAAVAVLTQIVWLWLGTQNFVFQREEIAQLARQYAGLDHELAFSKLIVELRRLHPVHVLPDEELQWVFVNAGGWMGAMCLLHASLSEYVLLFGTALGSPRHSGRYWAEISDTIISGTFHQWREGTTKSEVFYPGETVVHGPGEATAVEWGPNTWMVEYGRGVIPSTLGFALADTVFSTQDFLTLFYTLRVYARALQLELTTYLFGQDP
UniProt P47900, whole entry: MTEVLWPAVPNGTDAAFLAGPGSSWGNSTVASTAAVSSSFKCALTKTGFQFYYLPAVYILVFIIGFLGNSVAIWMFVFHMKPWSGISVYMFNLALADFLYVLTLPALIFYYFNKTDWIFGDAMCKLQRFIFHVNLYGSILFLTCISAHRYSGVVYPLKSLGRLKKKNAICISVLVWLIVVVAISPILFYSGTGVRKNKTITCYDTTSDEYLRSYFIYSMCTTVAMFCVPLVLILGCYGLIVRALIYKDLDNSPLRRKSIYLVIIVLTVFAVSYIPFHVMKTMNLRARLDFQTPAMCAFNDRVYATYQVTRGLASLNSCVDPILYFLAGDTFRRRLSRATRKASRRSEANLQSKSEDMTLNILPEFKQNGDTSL
UniProt P23975, whole entry: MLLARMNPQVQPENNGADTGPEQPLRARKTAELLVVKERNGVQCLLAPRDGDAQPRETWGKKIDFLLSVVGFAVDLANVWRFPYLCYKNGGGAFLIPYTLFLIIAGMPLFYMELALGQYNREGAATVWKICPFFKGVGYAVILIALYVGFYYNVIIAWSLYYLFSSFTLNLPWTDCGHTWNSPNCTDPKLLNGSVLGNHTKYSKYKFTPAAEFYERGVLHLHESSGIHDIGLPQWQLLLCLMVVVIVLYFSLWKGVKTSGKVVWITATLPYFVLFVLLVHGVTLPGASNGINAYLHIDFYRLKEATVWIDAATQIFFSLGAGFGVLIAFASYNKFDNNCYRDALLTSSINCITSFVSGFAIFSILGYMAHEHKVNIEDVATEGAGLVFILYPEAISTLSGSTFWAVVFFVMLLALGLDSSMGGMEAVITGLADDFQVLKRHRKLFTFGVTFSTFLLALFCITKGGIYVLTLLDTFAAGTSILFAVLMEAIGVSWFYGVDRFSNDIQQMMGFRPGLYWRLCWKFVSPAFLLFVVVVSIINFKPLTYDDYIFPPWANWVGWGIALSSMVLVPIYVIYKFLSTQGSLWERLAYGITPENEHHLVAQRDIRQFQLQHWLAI
UniProt Q07440, whole entry P104K/C113S, looked up: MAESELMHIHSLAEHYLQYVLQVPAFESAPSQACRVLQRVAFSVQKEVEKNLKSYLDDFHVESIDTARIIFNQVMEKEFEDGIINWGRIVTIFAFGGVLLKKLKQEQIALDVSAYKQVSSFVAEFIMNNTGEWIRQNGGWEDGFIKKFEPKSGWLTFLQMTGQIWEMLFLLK
UniProt P22756, 31-920 isoform 4 limits assumed: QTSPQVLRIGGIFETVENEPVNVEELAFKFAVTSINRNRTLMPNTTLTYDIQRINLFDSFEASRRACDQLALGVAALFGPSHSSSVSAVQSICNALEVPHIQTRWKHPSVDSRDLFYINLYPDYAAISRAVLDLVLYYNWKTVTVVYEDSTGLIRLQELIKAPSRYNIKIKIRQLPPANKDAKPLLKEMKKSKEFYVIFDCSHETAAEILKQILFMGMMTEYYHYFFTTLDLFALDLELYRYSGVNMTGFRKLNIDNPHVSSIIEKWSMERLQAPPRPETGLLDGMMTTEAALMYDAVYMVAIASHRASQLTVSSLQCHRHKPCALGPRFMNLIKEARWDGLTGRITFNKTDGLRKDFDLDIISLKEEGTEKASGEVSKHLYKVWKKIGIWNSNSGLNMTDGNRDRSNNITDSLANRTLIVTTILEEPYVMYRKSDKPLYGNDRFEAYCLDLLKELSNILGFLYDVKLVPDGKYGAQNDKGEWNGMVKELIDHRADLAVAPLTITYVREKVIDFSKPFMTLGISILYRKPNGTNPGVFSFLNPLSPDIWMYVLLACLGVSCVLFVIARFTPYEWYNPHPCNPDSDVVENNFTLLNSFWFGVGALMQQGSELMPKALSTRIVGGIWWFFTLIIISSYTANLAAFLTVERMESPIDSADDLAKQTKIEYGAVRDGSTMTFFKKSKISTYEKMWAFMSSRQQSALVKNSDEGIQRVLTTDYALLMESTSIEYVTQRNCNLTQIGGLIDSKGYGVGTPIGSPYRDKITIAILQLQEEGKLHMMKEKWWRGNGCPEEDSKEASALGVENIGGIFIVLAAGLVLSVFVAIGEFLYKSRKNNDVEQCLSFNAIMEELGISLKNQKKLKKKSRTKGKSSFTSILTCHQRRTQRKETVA
UniProt Q9NRA0, whole entry: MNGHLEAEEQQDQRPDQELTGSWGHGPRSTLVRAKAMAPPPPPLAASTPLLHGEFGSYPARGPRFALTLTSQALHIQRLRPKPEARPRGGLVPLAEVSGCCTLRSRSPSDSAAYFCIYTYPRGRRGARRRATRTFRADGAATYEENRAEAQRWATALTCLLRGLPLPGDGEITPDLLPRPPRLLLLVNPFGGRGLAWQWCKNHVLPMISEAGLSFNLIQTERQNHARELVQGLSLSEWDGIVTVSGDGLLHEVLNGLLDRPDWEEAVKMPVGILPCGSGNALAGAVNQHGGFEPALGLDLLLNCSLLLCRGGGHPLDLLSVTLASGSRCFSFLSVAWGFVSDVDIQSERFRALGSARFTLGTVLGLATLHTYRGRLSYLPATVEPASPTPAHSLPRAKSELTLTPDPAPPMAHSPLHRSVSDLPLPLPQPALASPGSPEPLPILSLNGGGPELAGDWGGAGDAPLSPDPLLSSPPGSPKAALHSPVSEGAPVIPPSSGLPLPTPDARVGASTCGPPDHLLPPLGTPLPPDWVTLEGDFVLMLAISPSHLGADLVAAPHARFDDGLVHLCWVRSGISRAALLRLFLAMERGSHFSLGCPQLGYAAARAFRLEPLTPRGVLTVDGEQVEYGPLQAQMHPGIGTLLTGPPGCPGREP
UniProt P30419, whole entry: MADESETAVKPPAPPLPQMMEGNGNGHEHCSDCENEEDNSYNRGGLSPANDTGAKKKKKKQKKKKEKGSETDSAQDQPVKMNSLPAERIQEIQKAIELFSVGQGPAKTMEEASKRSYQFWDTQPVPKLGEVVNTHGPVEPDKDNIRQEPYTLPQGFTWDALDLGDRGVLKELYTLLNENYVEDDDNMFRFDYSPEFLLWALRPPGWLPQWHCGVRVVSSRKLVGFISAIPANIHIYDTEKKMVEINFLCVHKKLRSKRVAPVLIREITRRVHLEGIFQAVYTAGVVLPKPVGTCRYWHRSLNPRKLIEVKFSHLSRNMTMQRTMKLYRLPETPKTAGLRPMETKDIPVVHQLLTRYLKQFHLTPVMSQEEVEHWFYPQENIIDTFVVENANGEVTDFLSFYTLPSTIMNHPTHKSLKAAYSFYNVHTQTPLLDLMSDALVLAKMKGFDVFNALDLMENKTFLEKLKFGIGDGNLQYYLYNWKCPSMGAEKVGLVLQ

| Structure (SMILES) | tested on | assay | system | setting | scale | measurement | result |
| --- | --- | --- | --- | --- | --- | --- | --- |
| CCCCCCCCC(CCCCCC=CCCCCCC(CCCCCCCC)C(=O)OCC1(CO)CC(=C(C)C)C(=O)O1)C(=O)OCC1(CO)CC(=C(C)C)C(=O)O1 (racemic) | PRKCD | binding, [3H]PDBu competition |  | with: phosphatidylserine 100 µg/mL |  | Ki | 0.0132 ± 0.0019 µM |
| COC(=O)[C@@H]1C(c2nc3cc(C)ccc3o2)=Cc2cc3c(cc2[C@H]1c1cc(OC)c(OC)c(OC)c1)OCO3 | Leishmania |  | mouse splenocytes |  | reference: CC50 over amastigote EC50 | selectivity index | 8.9 |
| CCOC(=O)N(Cc1ccccc1)C(=O)/C(C#N)=C/c1ccc(Cl)c(Cl)c1 | Pick1 PDZ domain | binding, fluorescence polarization |  | with: labelled hDAT C-terminal peptide |  | Ki | 14 ± 1.7 µM |
| CCCCCCCCC(CCC=CCCC(CCCCCCCC)C(=O)OCC1(CO)CC(=C(C)C)C(=O)O1)C(=O)OCC1(CO)CC(=C(C)C)C(=O)O1 (racemic) | PRKCA | binding, [3H]PDBu competition |  | with: phosphatidylserine 100 µg/mL |  | Ki | 0.0084 ± 0.0014 µM |
| CC(C)C[C@H](NC(=O)c1cc(C(=O)O)cc([C@H]2CCN[C@@H]2C(=O)O)c1)C(=O)O | NMDA receptor (rat) | binding, radioligand binding | rat cortical synaptosomes | with: [3H]CGP39653 |  | Ki | 3.9 µM |
| COc1cccc(-c2c(C#N)c(N)nc(SCc3ncc[nH]3)c2C#N)c1 | ADORA1 (Homo sapiens, UniProt P30542) | radioligand displacement | HEK293 membranes | 1 h, 25 °C, with: 0.5 nM [3H]DPCPX |  | Ki | 0.0031 ± 0.0004 µM |
| C=C1C[C@]2(C(=O)OC)C=C(C(=O)OC(C)(C)C)C(=O)[C@H]1C2 (relative stereo) | MAPK8 | docking peptide binding, competitive inhibitor, fluorescence polarization |  | with: labelled JIP1 peptide |  | Ki | 2.1 ± 0.2 µM |
| COCCOc1cccc(Oc2cccc3nc(-c4cn(-c5ccc(O)c(F)c5)nn4)ccc23)c1 | MIF (Homo sapiens, UniProt P14174) | tautomerase activity, inhibitor |  | with: HPP substrate |  | Ki | < 0.1 µM |
| N#Cc1cccc(C(=O)N2C[C@H](O)C[C@H]2C(=O)NCc2ccc(-c3cnco3)cc2)c1 | VHL with elongin B, C | inhibitor, fluorescence polarization | VHL-elonginB-elonginC complex | 1% DMSO, with: FAM-DEALA-Hyp-YIPD peptide |  | Ki | 35.1 µM |
| CCCCOC(=O)NC(=O)/C(C#N)=C/c1ccc(Cl)c(Cl)c1 | Pick1 PDZ domain | binding, fluorescence polarization |  | with: labelled hDAT C-terminal peptide |  | Ki | 12 ± 2.8 µM |
| CCCCCCCCC(CCCCC=CCCCCC(CCCCCCCC)C(=O)OCC1(CO)CC(=C(C)C)C(=O)O1)C(=O)OCC1(CO)CC(=C(C)C)C(=O)O1 (racemic) | PRKCA | binding, [3H]PDBu competition |  | with: phosphatidylserine 100 µg/mL |  | Ki | 0.0174 ± 0.0052 µM |
| COC(=O)[C@@]1(C)C=C(C(=O)OCc2ccccc2)C(=O)CC1 | MAPK14 | D-peptide displacement, fluorescence polarization |  |  |  | Ki | 4.8 ± 0.4 µM |
| COc1cc(Nc2ccnc3cc(-c4ccncc4)ccc23)cc(OC)c1OC | AAK1 (Homo sapiens, UniProt Q2M2I8) |  |  |  |  | Ki | 2.8 µM |
| O[C@@H](c1ccc(F)cc1)C(F)(F)CCN1CCC(O)(c2ccc(Cl)cc2)CC1 (racemic) | SIGMAR1 (Cavia porcellus, UniProt Q60492) |  |  |  |  | Ki | 0.0036 ± 0.0008 µM |
| COC(=O)C1(C)C=C(C(=O)OCc2ccccc2)C(=O)C1 (centres unmarked) | MAPK14 | D-peptide displacement, fluorescence polarization |  |  |  | Ki | 9.4 ± 2.1 µM |
| COC(=O)[C@@]1(C)C=C(C(=O)OCc2cccc(C(=O)Nc3ccc(Nc4nccc(-c5cccnc5)n4)c(C)c3)c2)C(=O)CC1 | MAPK8 | SPR two-step reversible model |  |  |  | Ki | 0.0022 µM |
| CNc1nc(C#CCCCC(=O)NCCNC(=O)CCCC[C@@H]2SC[C@@H]3NC(=O)N[C@@H]32)nc2c1ncn2[C@H]1C[C@H](OP(=O)(O)O)[C@]2(COP(=O)(O)O)C[C@H]12 | P2Y purinoceptor 1 (P2RY1, Homo sapiens, UniProt P47900) | binding, radioligand binding | Sf9 cell membranes | 30 min, 4 °C, with: iodinated P2Y1 antagonist radioligand |  | Ki | > 10 µM |
| CCCCOC(=O)[C@@]12C[C@@H]1[C@@H](n1cnc3c(NC)nc(C#Cc4ccc(Cl)s4)nc31)[C@H](O)[C@@H]2O | SLC6A2 (Homo sapiens, UniProt P23975) | binding, radioligand binding | HEK293 | with: [3H]nisoxetine |  | Ki | 4.9 µM |

| Structure (SMILES) | tested on | assay | system | setting | scale | measurement | result |
| --- | --- | --- | --- | --- | --- | --- | --- |
| FC1CCN(c2ccc3sc(-c4cccnc4)cc3n2)C1 (centres unmarked) | Alpha-synuclein, PD brain aggregates (SNCA, Homo sapiens, UniProt P37840) | binding | Parkinson's disease brain homogenate | with: [3H]asyn-44 1 nM |  | Ki | 0.0296 µM |
| C/C(=N\OCCN1CCC(N2CCOCC2)CC1)c1ccc(C(F)(F)F)cc1 | Sigmar1 | radioligand binding | rat |  |  | Ki | 0.136 ± 0.00516 µM |
| COC(=O)C1(C)C=C(C(=O)NC(C)(C)CO)C(=O)CC1 (centres unmarked) | MAPK14 | D-peptide displacement, fluorescence polarization |  |  |  | Ki | 53 ± 11.1 µM |
| Cc1ccc(N=Nc2c(O)c(S(=O)(=O)O)cc3cc(S(=O)(=O)O)ccc23)c(C)c1 | Bcl-2-related protein A1 (Mus musculus, UniProt Q07440, C113S/P104K) | binding, inhibitor, fluorescence polarization |  | with: FITC-labelled Noxa peptide |  | Ki | > 20.3 µM |
| C#CCCCCOC(=O)[C@]1(C)C=C(C(=O)OC(C)(C)C)C(=O)CC1 | MAPK8 | D-peptide displacement, fluorescence polarization |  |  |  | Ki | 1.6 ± 0.4 µM |
| CC1(C)C(=CC=CC=CC=CC2=[N+](CCCCS(=O)(=O)[O-])c3ccc4ccccc4c3C2(C)C)N(CCCCCC(=O)NCCCCC(NC(=O)CCCCCCC(=O)NCCCC[C@H](NC(=O)N[C@@H](CCC(=O)O)C(=O)O)C(=O)O)C(=O)O)c2ccc3ccccc3c21 (some centres unmarked) | FOLH1 | enzyme activity, inhibitor |  | compound in DMSO, with: [3H]NAAG 30 nM |  | Ki | 0.0002 ± 5e-06 µM |
| C/C(=N\OCCN1CCCc2ccccc2C1)c1ccc(C(F)(F)F)cc1 | Sigmar1 | radioligand binding | rat |  |  | Ki | 0.0483 µM and 0.0448 to 0.0483 µM |
| CCOC(=O)NC(=O)/C(C#N)=C/c1ccccc1 | Pick1 PDZ domain | binding, fluorescence polarization |  | with: labelled hDAT C-terminal peptide |  | Ki | 84 ± 2.2 µM |
| CCCCCCCCC(CCCCCCCCC=CCCCCCCCCC(CCCCCCCC)C(=O)OCC1(CO)CC(=C(C)C)C(=O)O1)C(=O)OCC1(CO)CC(=C(C)C)C(=O)O1 (racemic) | PRKCD | binding, [3H]PDBu competition |  | with: phosphatidylserine 100 µg/mL |  | Ki | 0.0123 ± 0.0021 µM |
| O=C(O)c1cc(C(=O)N2CCC[C@H]2C(=O)O)cc([C@H]2CCN[C@@H]2C(=O)O)c1 | Glutamate receptor ionotropic, kainate 1 (Rattus norvegicus, UniProt P22756) | binding, radioligand binding | Sf9 membranes | homomeric receptor, with: [3H]SYM2081 |  | Ki | 1.44 ± 0.18 µM |
| CCCCCCCCCCCCc1ccc(C(=O)NC2(C(=N)N)CC2)cc1 | SPHK2 (Homo sapiens, UniProt Q9NRA0) | inhibitor, FlashPlate |  |  |  | Ki | 0.8 µM |
| Cc1c(N)cccc1C(=O)N1C[C@H](O)C[C@H]1C(=O)NCc1ccc(-c2cnco2)cc1 | VHL with elongin B, C | inhibitor, fluorescence polarization | VHL-elonginB-elonginC complex | 1% DMSO, with: FAM-DEALA-Hyp-YIPD peptide |  | Ki | 10.4 µM |
| CC1(C)C(=CC=C2CCCC(C=CC3=[N+](CCCCS(=O)(=O)O)c4ccc(S(=O)(=O)O)cc4C3(C)C)=C2Oc2ccc(S(=O)(=O)O)cc2)N(CCCCCC(=O)NCCCC[C@H](NC(=O)N[C@@H](CCC(=O)O)C(=O)O)C(=O)O)c2ccc(S(=O)(=O)[O-])cc21 | FOLH1 | enzyme activity, inhibitor |  | compound in water, with: [3H]NAAG 30 nM |  | Ki | 7e-05 ± 5e-06 µM |
| c1ccc(Cc2noc(-c3cccc(OC4CCNCC4)c3)n2)cc1 | NMT1 (Homo sapiens, UniProt P30419) | enzyme activity, inhibitor, CPM fluorescence |  |  |  | Ki | 18 µM |
| O=C(CNc1ccc2ccccc2c1)N/N=C/c1ccc(C(=O)O)cc1 | CFTR (Homo sapiens, UniProt P13569) | apical chloride current, inhibitor | FRT cells expressing CFTR | basolateral membrane permeabilised |  | Ki | 25 to 50 µM |
| COc1cc([C@@H]2c3cc4c(cc3C=C(C=O)[C@H]2C(=O)OCc2ccc(CBr)cc2)OCO4)cc(OC)c1OC | Leishmania infantum | iRFP fluorescence | mouse splenocytes infected, amastigote, iRFP, ex vivo splenic explant | 48 h |  | EC50 | 51.9 ± 0.3 µM |
| CCCCCCCCCCCCCC[C@@H](O)[C@@H](O)[C@H](CO[C@H]1O[C@H](CO)[C@H](O)[C@H](O)[C@H]1O)NC(=O)CCCCCc1ccccc1 | Cd1d1, dimeric Ig fusion (Mus musculus, UniProt P11609) | binding, competitive microarray binding |  | with: printed glycolipid 100 µM |  | Ki | 2.1 ± 0.8 µM |

Repeated from above:
| Structure (SMILES) | tested on | assay | system | setting | scale | measurement | result |
| --- | --- | --- | --- | --- | --- | --- | --- |
| CC(C)C[C@H](NC(=O)c1cc(C(=O)O)cc([C@H]2CCN[C@@H]2C(=O)O)c1)C(=O)O | NMDA receptor (rat) | binding, radioligand binding | rat cortical synaptosomes | with: [3H]CGP39653 |  | Ki | 3.9 µM |
| COc1cccc(-c2c(C#N)c(N)nc(SCc3ncc[nH]3)c2C#N)c1 | ADORA1 (Homo sapiens, UniProt P30542) | radioligand displacement | HEK293 membranes | 1 h, 25 °C, with: 0.5 nM [3H]DPCPX |  | Ki | 0.0031 ± 0.0004 µM |
| C=C1C[C@]2(C(=O)OC)C=C(C(=O)OC(C)(C)C)C(=O)[C@H]1C2 (relative stereo) | MAPK8 | docking peptide binding, competitive inhibitor, fluorescence polarization |  | with: labelled JIP1 peptide |  | Ki | 2.1 ± 0.2 µM |
| COCCOc1cccc(Oc2cccc3nc(-c4cn(-c5ccc(O)c(F)c5)nn4)ccc23)c1 | MIF (Homo sapiens, UniProt P14174) | tautomerase activity, inhibitor |  | with: HPP substrate |  | Ki | < 0.1 µM |
| N#Cc1cccc(C(=O)N2C[C@H](O)C[C@H]2C(=O)NCc2ccc(-c3cnco3)cc2)c1 | VHL with elongin B, C | inhibitor, fluorescence polarization | VHL-elonginB-elonginC complex | 1% DMSO, with: FAM-DEALA-Hyp-YIPD peptide |  | Ki | 35.1 µM |
